Published values pooled from the literature.
Compare with care: the assays were run in different laboratories. Values joined by “and” are separate records of one study, mostly repeats; a detail may differ. ± marks the error that the study gave. *: point of attachment.
B1: N-biotin-Ahx, C-amide; Biotin = O=C1N[C@H]2[C@H](CS[C@H]2CCCCC(=O)*)N1; Ahx = NCCCCCC(=O)O; chain {Biotin-Ahx}-KKGFYKKKQCRPSKGRKRGFCWAVDKYG-NH2 (cysteine pairing not given here)

`CC(C)(C)OC(=O)Nc1cccc(-c2cc(C(=O)NCCc3cc(C(=O)NO)no3)no2)c1` gave a GI50 of > 50 µM (L3.6pl; cell growth or viability, MTS; 72 h).
Under “PSA reporter activity”, `O=C1/C(=C/c2ccc(O)c(Br)c2)CN(Cc2ccccc2)C/C1=C\c1ccc(O)c(Br)c1` is recorded as “decreased” (LNCaP cells; reporter gene, luciferase; up to 8 to 10 µM, 2 days; relative to: CMV-Renilla control).
For `CNC(=O)c1cccc2cc(Oc3ccnc4cc(OCC5(N)CC5)c(OC)cc34)ccc12`, “lowest effective concentration” read ≥ 100 nM (NCI-H1581; inhibitor, Western blot; 2 h, serum starved).
`CNCCCN1c2ccccc2CCc2ccccc21` gave a [18F]-DOPA uptake of 67.4% (mouse pheochromocytoma MPC cells; 1 µM, 30 min preincubation, added: 0.029 MBq/mL [18F]-DOPA 10 min; relative to: control).
For `CC(=O)[C@]1(O)Cc2c(O)c3c(c(O)c2[C@@H](O[C@H]2C[C@H](N)[C@H](O)[C@H](C)O2)C1)C(=O)c1ccccc1C3=O`, “number of downregulated proteins” read 568 (hiPSCs; LC-MS/MS proteomics; concentration not given, 24 h, fold change below 0.67).
With `COc1cc2c(cc1Cc1cccc(Cl)c1F)c(=O)c(C(=O)O)cn2[C@H](CO)C(C)C` the classification accuracy was < 100% (human neural progenitor cells; concentration not given; relative to: DMSO).
With `COc1cccc2c1C(=O)c1c(O)c3c(c(O)c1C2=O)C[C@@](O)(C(=O)CO)C[C@@H]3O[C@H]1C[C@H](N)[C@H](O)[C@H](C)O1` the mRNA level was 4.17 ± 0.91 (HepG2; real-time PCR, refers to: caspase-3; 0.1 µM, 8 h, unit not given; relative to: untreated).
`NC1=NC(=S)NC12CCCCC2` has an inhibition of 97.8% (human erythrocytes; hypotonicity-induced hemolysis; 1000 µg/mL, 1 h).
`N.N.O=C([O-])C1(C(=O)[O-])CCC1.[Pt+2]` gave a viability decrease of 25% (A2780 (platinum-sensitive); 24.6 µM, 72 h).
The GI50 of `CCCCCCCCCCCCCCCCCCOc1ccccc1CC(=O)OCC[N+]1(C)CCCCC1` is reported as < 3 µM (leukaemia cells; range over four lines).
With `CSTSCR` the adherent cells was 82% (rabbit smooth muscle cells; peptide; 2 µg coated per well, 30 to 60 min; relative to: thrombospondin-coated wells).
The GI50 of `CCn1c(=O)c(-c2cc(NC(=O)Nc3ccccc3)c(F)cc2Br)cc2cnc(NC)cc21` is reported as 0.261 µM (Mo7e (KIT wild-type amplified); cell growth).
`O=C1CCC(=O)C2(CCCCC2)N1` has an inhibition of 58.2% (human erythrocytes; hypotonicity-induced hemolysis; 100 µg/mL, 1 h).
For `Fibronectin`, “neurons with neurites” read ~30% (chick DRG neurons; 5 µg/mL, 24 h, coated substrate).
`COc1cc(Cc2nnc3sc(/C=C/c4ccc(F)cc4)nn23)c(S(=O)(=O)N(C)C)cc1OC` gave a TGI of > 100 µM (MRC5 normal lung fibroblasts; MTT; 48 h).
`C[C@H](NC(=O)Cc1cc(F)cc(F)c1)C(=O)N[C@H](C(=O)OC(C)(C)C)c1ccccc1`: mRNA level “decreased” (HPB-ALL; qPCR, refers to: c-MYC; 30 µM, 16 h, 37 °C; relative to: untreated).
For `SIIVFEKL`, “IFN-gamma single producers” read 0.07% (OT-I CD8+ T cells; peptide; primed 5 d, OVA257 100 ng/mL restimulation, added: 20 ng/mL TGF-beta1 from day 2).
For `Cc1cc(-c2ccccc2)c2c(n1)C1(CCCCC1)NC2=O`, the inhibition was 82.7% (human erythrocytes; hypotonicity-induced hemolysis; 600 µg/mL, 1 h).
`COc1ccc2c(c1)c1c(n2CO)CN2CCc3cc4c(cc3C2C1)OCO4` (stereo not drawn) gave a protein level of 0.86 (HepG2; Western blot, refers to: PCSK9; 5 µM, 24 h, unit not given; relative to: vehicle).
`C=C1C(=O)O[C@H]2[C@H]1CCC(C)=C1CC[C@@](C)(O)[C@@H]12` has a viability of 50% (M9-ENL1; annexin V, 7-AAD; 20 µM, 24 h).
Under “minimum effective concentration”, `CC[C@H](Nc1ncnc2[nH]cnc12)c1nc2cccc(F)c2c(=O)n1-c1ccccc1` is recorded as ≥ 100 nM (primary CLL cells; AKT phosphorylation, inhibitor; 30 min, added: anti-IgM; any decrease).
`AIAEGDSHVLKEGAY / MEIFDVQGHVFGGKIFRVVDLGSHNVA (oligomer)` — result for “T cell association”: 55 to 60% (human T cells; flow cytometry, ThT label; peptide; 10 µM, 1 h).
Under “uptake of HRP complex”, `B1` is recorded as “inhibited” (CHO pgsD-677, heparan sulfate-deficient; 30 min, 37 °C, 240 ng/mL peptide-HRP complex).
With `COc1cc2c(cc1OC)C1CC(=O)C(CC(C)C)CN1CC2` (stereo not drawn) the [18F]-dopamine retention was 33.8% (mouse pheochromocytoma MPC cells; 10 µM, 30 min preincubation, added: 0.024 MBq/mL [18F]-dopamine, 120 min retention phase; relative to: control).
The inhibition of `COc1ccc2c(c1)c(CC(=O)O)c(C)n2C(=O)c1ccc(Cl)cc1` is reported as 90% (human erythrocytes; hypotonicity-induced hemolysis; 200 µg/mL, 1 h).
For `C[C@H](N)C(N)=O`, the eosinophil chemotaxis was 86.1% (human eosinophils; 10 to 6 M, 20 min pretreatment, 37 °C, cells washed before stimulus, added: valyl-tetrapeptide; relative to: control).
For `SIYNFEKL`, “IFN-gamma single producers” read 0.12% (OT-I CD8+ T cells; peptide; primed 5 d, OVA257 100 ng/mL restimulation, added: 20 ng/mL TGF-beta1 from day 2).
With `O=C1NC2(CCCCC2)c2nc3c(c(-c4ccccc4)c21)CCCC3` the inhibition was 108% (human erythrocytes; hypotonicity-induced hemolysis; 400 µg/mL, 1 h).
For `CC[C@H](C)[C@H](NC(=O)[C@H](CC(C)C)NC(=O)[C@@H](NC(=O)[C@@H]1CCCN1C(=O)[C@@H](NC(=O)[C@@H]1CCCN1C(=O)[C@@H](NC(=O)[C@H](CO)NC(=O)[C@H](Cc1c[nH]cn1)NC(=O)[C@@H]1CCCN1C(=O)[C@H](CCCNC(=N)N)NC(=O)[C@H](CCCCN)NC(=O)[C@H](CCCNC(=N)N)NC(=O)[C@H](CCCNC(=N)N)NC(=O)[C@H](CCCNC(=N)N)NC(=O)[C@@H]1CCCN1C(=O)[C@H](CCCNC(=N)N)NC(=O)[C@H](CC(C)C)NC(=O)[C@H](CC(C)C)NC(=O)[C@H](Cc1c[nH]cn1)NC(=O)[C@H](Cc1c[nH]cn1)NC(=O)CNC(=O)[C@@H](N)CSSC[C@H](N)C(=O)NCC(=O)N[C@@H](Cc1c[nH]cn1)C(=O)N[C@@H](Cc1c[nH]cn1)C(=O)N[C@@H](CC(C)C)C(=O)N[C@@H](CC(C)C)C(=O)N[C@@H](CCCNC(=N)N)C(=O)N1CCC[C@H]1C(=O)N[C@@H](CCCNC(=N)N)C(=O)N[C@@H](CCCNC(=N)N)C(=O)N[C@@H](CCCNC(=N)N)C(=O)N[C@@H](CCCCN)C(=O)N[C@@H](CCCNC(=N)N)C(=O)N1CCC[C@H]1C(=O)N[C@@H](Cc1c[nH]cn1)C(=O)N[C@@H](CO)C(=O)N[C@H](C(=O)N1CCC[C@H]1C(=O)N[C@H](C(=O)N1CCC[C@H]1C(=O)N[C@H](C(=O)N[C@@H](CC(C)C)C(=O)N[C@H](C(=O)N[C@@H](Cc1ccccc1)C(=O)N[C@@H](CCCNC(=N)N)C(=O)N[C@@H](CO)C(=O)N1CCC[C@H]1C(=O)O)[C@@H](C)CC)[C@@H](C)CC)[C@@H](C)O)[C@@H](C)CC)[C@@H](C)CC)[C@@H](C)O)[C@@H](C)CC)C(=O)N[C@@H](Cc1ccccc1)C(=O)N[C@@H](CCCNC(=N)N)C(=O)N[C@@H](CO)C(=O)N1CCC[C@H]1C(=O)O`, “apoptotic tumour cells” read 45.9 ± 30.6% (MDA-MB-231 co-cultured with PBMC; annexin V/PI flow cytometry; 10 µg/mL, 4 to 6 days).
`CCC#CC[C@H](C)[C@H](O)/C=C/[C@H]1CC(F)(F)C(=O)N1CCCCCCC(=O)O` has an EC50 of 0.00215 µM (rat bone marrow cells; alkaline phosphatase activity, activator; 9 days, vehicle pretreatment).
`CCCCCCCCCCCCCCCCCCOCC(COP(=O)([O-])OCC[N+](C)(C)C)OC` (stereo not drawn) has a GI50 of 3.94 to 44.3 µM (leukaemia cells; range over four lines).
`O=C(/C=C/N1C[C@H]2C[C@@H]1CN2c1ccccn1)c1ccccc1O` gave an effective concentration of 1 µM (C3H10T1/2; adipocyte differentiation, Oil Red O staining).
`TCVCGS` gave an adherent cells of 8% (rabbit smooth muscle cells; peptide; 2 µg coated per well, 30 to 60 min; relative to: thrombospondin-coated wells).
With `CC(C)(N)C(=O)O` the Kd was 45000 µM (Ehrlich ascites cells, mouse; Na+ binding to carrier; equilibrium model K1).
`O=C1NC2(CCCCC2)c2[nH]c(=S)nc(-c3ccccc3)c21` gave an inhibition of 74.4% (human erythrocytes; hypotonicity-induced hemolysis; 200 µg/mL, 1 h).
For `galanin`, cAMP level read “no effect” (rat sciatic nerve fibroblasts; radioimmunoassay; concentration not given, 2 min, added: 200 µM IBMX).
Under “fold decrease in ROS”, `O=C(/C=C/c1ccc(O)c(O)c1)c1ccc(O)cc1O` is recorded as 1.64 (MRC-5; H2O2-induced intracellular ROS; concentration not given, 24 h pretreatment, added: H2O2 5 mM for 15 min; relative to: untreated H2O2-exposed cells).
`COc1ccc(-c2ccc(-c3ccc(C(=N)N)nc3)s2)cc1Cl` has a mRNA level of 1.85 ± 0.11 (HepG2; real-time PCR, refers to: caspase-3; 0.1 µM, 8 h, unit not given; relative to: untreated).
With `COc1cc(O)c2c(c1)O[C@H](c1ccc(O)cc1)CC2=O` the Hill slope was -2.7 ± 1 (BV-2; TNF-alpha release, inhibitor, ELISA; 24 h, added: 10 µg/mL LPS + 1 µM nicotine).
`C#CCCC1(CCC(=O)N[C@@H](CC(C)C)C(=O)Nc2ccc3ccccc3c2)N=N1` gave an effective concentration of ≤ 10 µM (differentiating preadipocytes and MSCs; adipogenic marker expression, inducer, refers to: PPARγ, FABP4, CD36).
With `CSVTCG` the adherent cells was 82% and 44% (rabbit smooth muscle cells; peptide; 2 µg coated per well, 30 to 60 min; relative to: thrombospondin-coated wells).
`O=C(NN=Cc1c(O)ccc2ccccc12)c1ccncc1` — result for “labile iron pool concentration”: 3.07 ± 0.46 µM (human erythrocytes; iron chelator, calcein dequenching; 100 µM).

Some of these lines once more:
With `COc1cccc2c1C(=O)c1c(O)c3c(c(O)c1C2=O)C[C@@](O)(C(=O)CO)C[C@@H]3O[C@H]1C[C@H](N)[C@H](O)[C@H](C)O1` the mRNA level was 4.17 ± 0.91 (HepG2; real-time PCR, refers to: caspase-3; 0.1 µM, 8 h, unit not given; relative to: untreated).
`O=C1NC2(CCCCC2)c2[nH]c(=S)nc(-c3ccccc3)c21` gave an inhibition of 74.4% (human erythrocytes; hypotonicity-induced hemolysis; 200 µg/mL, 1 h).
`CCC#CC[C@H](C)[C@H](O)/C=C/[C@H]1CC(F)(F)C(=O)N1CCCCCCC(=O)O` has an EC50 of 0.00215 µM (rat bone marrow cells; alkaline phosphatase activity, activator; 9 days, vehicle pretreatment).
`AIAEGDSHVLKEGAY / MEIFDVQGHVFGGKIFRVVDLGSHNVA (oligomer)` — result for “T cell association”: 55 to 60% (human T cells; flow cytometry, ThT label; peptide; 10 µM, 1 h).
The GI50 of `CCn1c(=O)c(-c2cc(NC(=O)Nc3ccccc3)c(F)cc2Br)cc2cnc(NC)cc21` is reported as 0.261 µM (Mo7e (KIT wild-type amplified); cell growth).
With `COc1cc(O)c2c(c1)O[C@H](c1ccc(O)cc1)CC2=O` the Hill slope was -2.7 ± 1 (BV-2; TNF-alpha release, inhibitor, ELISA; 24 h, added: 10 µg/mL LPS + 1 µM nicotine).
